# Results collected from several papers.
# Parts stem from different laboratories: compare values within a part only. Changes are numbered by the printed parent chain.

# Study 1 — target: FOS, bZIP domain (human); method: DHFR protein complementation; sample: yeast; baseline: wild-type JUN-FOS pair; reading: higher = stronger binding
# Notes: single substitutions, most at no-binding floor
# Starting sequence: JUN, bZIP domain (human); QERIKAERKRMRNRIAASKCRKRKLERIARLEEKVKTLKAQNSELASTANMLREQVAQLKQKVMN; partner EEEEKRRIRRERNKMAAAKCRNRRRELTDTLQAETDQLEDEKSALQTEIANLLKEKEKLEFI
Variant,binding fitness
S47Y,-0.149 natural log
E32C,0.269 natural log
A40F,-0.182 natural log
Q41Y,-1.55 natural log
Q41F,-1.42 natural log
L59H,-1.15 natural log
Q55N,-0.388 natural log
A57M,-0.12 natural log
A40T,0.0165 natural log
E32A,0.304 natural log
L31N,-0.663 natural log
Q55R,-0.183 natural log
K34S,-0.164 natural log
A49Q,-0.813 natural log
E33H,-0.234 natural log
V56E,-1.15 natural log
A49N,-1.3 natural log
V56C,-0.52 natural log
V35C,-0.221 natural log

# Study 2 — method: DHFR PCA, deep sequencing; sample: yeast; added: (+)-ABA 4.8 µM; baseline: wild-type fitted maximum; reading: higher = stronger binding
# Target: ABI1, truncated, D143A, DHFR fusion (Arabidopsis thaliana)
# Notes: methotrexate growth selection, single substitutions
# Starting sequence: PYL1, truncated, DHFR fusion (Arabidopsis thaliana); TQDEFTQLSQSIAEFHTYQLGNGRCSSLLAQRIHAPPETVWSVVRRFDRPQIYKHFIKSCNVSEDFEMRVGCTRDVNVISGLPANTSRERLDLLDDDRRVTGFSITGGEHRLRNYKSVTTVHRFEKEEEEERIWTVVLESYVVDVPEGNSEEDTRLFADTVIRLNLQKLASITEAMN
Variant,relative binding score [%]
E128L,59.2
T160G,10.2
E139T,83
E64R,67.3
D153T,-10.3
T101W,0.673
P37R,1.61
R69S,66
L169M,-11
W134N,58
R32D,25.4
R123P,72.1
R46L,24.1
E89G,9.2
E131P,88.2
V76N,2.2
S9L,50.7
L138K,-40.6
V143H,-1.84
Q31K,60.6
E147P,74
C72K,21.6
L28S,6.7
F47E,-7.23
S104H,10

# Study 3 — target: CCNE1, cyclin fold, Cln2 fusion (human); method: yeast growth competition, sequencing; sample: yeast; notes: strong parent motif; baseline: not given; reading: higher = stronger binding
# Starting sequence: CDKN1C docking peptide (human); TSACRSLFGPVDH; partner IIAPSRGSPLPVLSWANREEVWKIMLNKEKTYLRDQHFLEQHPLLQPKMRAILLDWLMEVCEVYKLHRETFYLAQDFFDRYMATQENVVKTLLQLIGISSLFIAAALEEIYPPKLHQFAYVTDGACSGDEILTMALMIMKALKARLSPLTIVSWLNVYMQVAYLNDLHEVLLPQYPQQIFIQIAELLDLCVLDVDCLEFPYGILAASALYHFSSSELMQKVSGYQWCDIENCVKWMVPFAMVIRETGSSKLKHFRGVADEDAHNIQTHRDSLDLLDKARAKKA
Variant,normalised enrichment score
P10A,1.5
F8L,0.0444
R5K,0.424
R5A L7A,-0.282
R5A,-0.124
S2A,1.54
F8A,0.239
T1A,1.64
G9A,1.2

# Study 4 — method: universal PBM; molecule type: double-stranded DNA, one strand shown; sample: in vitro; concentration: not given; reading: higher = stronger binding
# Target: Sal-like protein 4, full length isoform B (SALL4, Homo sapiens, UniProt Q9UJQ4-2, residues 1-616)
# Notes: 8-mer, flanks averaged, mean of replicates
Oligonucleotide,E-score
ATTCCCAC,0.0642
CCCCCCCG,-0.362
AACGTCGA,0.125
AGGATGAT,0.0447
GGCAAAGA,0.0498
CCGGCCGG,-0.284
CTATTTAC,0.2
TCCTAACA,0.137
CCAATGCG,-0.12
CTAGCCCA,-0.117
GGCCCGAC,-0.37
AAATACCA,0.208
AGACCAGC,-0.355
CAACCGGA,-0.292
AGCCGTGG,-0.227
AGTAGTAG,0.0596
CTCCGCTC,-0.136

# Study 5 — method: protein binding microarray; molecule type: double-stranded DNA, one strand shown; sample: in vitro; concentration: not given; baseline: not given; reading: higher = stronger binding
# Target: Histone acetyltransferase KAT6A, both winged helices, GST fusion (KAT6A, Homo sapiens, UniProt Q92794, residues 1-181)
# Notes: 8-mer, flanks averaged, mean of 2 arrays, mostly near background
# Target sequence (chain): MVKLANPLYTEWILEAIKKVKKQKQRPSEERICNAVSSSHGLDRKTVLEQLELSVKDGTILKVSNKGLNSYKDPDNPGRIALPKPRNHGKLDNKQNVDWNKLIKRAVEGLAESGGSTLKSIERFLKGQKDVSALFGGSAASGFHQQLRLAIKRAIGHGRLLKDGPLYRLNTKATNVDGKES
Oligonucleotide,E-score
AATTAGAG,-0.122
CTCTCAAG,-0.238
GGAAGTGA,0.0663
GGTCGAGA,-0.0308
CCTAGTCA,-0.288
AAACTGTT,0.0098
CCGTTATC,0.152
CCCGCCAA,0.182
GAGGCTAA,-0.146
AGTAGAGC,-0.189
GGCAGCAA,-0.0836
CCTAGGCG,0.0596
ACCAAAAG,-0.0038
GAAAGAGC,-0.0147
AGCCCTAA,-0.0509
ACTCAACG,-0.0524
CAGATTGC,-0.0403

# Study 6 — method: RNA Bind-n-Seq; molecule type: RNA; sample: in vitro; concentration: 200 nM; notes: whole 134-nt RNA, ends assumed; added: 150 mM KCl; baseline: input library; reading: higher = stronger binding
# Target: Fragile X messenger ribonucleoprotein 1, C-terminal low-complexity region (Fmr1, Mus musculus, UniProt P35922)
# Shared flanks, not repeated: GGGAGUUCUACAGUCCGACGAUC … UGGAAUUCUCGGGUGUCAAGG
Oligonucleotide,log2 enrichment
GUCCUGUGCUACACAUCGUAUGUACCGAAUCGGGGUGGGGUUUUUGGGGUUUUUGGGGAAAGUAUUAUGUUACGCCGUUCGGAUCUGCAC,0.802
CCUGUGCUACACAUCGUAUGUACCGAAUCGGGGUUUUUUGGGGUUUUUUGGUUUUUUGGGAAAGUAUUAUGUUACGCCGUUCGGAUCUGC,-0.256
UCAAGUCCUGUGCUACACAUCGUAUGUACCGAAUCGGUGGAAAAAGGUUUUUGGAAAGUAUUAUGUUACGCCGUUCGGAUCUGCACUUCC,-0.603
UCCCUGAAUCACCGACUGGAGGAGAGUUACCUACAAGAGCCUUCAUCCAGGAGCAUCCACACUGCAAUGAUAUAGGAAUGAGGUCUGAAC,-0.0442
CAAGUCCUGUGCUACACAUCGUAUGUACCGAAUCGGGGUGGGGUUUGGGGUGGGGAAAGUAUUAUGUUACGCCGUUCGGAUCUGCACUUC,1.3
UGGCCCUGGUAGCAUGCGGGGAGGAAGAGGUGGCCUCAUGGAUCGUGGUGGUCCCGGUGGAAUGUUCAGAGGUGGCCGUGGUGGAGACAG,0.0201
GUCCUGUGCUACACAUCGUAUGUACCGAAUCGGGUUUUUGGGUUUUUUUGGGUUUGGGAAAGUAUUAUGUUACGCCGUUCGGAUCUGCAC,0.164
AAGUCCUGUGCUACACAUCGUAUGUACCGAAUCGGAAAAGGGAAAAGGGAAAAGGGAAAGUAUUAUGUUACGCCGUUCGGAUCUGCACUU,-0.529
AAGUCCUGUGCUACACAUCGUAUGUACCGAAUCGGGGUGGGGUUUUUGGGGUGGGGAAAGUAUUAUGUUACGCCGUUCGGAUCUGCACUU,1.17

# Further values, each from its own experiment
Molecule,target,test,system,setting,scale,measurement,value
"PhoQ, residues 284 288 289 292 302 303 NLGVHL","PhoP, residues 12 14 15 18 19 NQFFI (Escherichia coli, UniProt P23836)","Sort-seq, measured: YFP reporter",E. coli,"PhoQ-PhoP variant library, added: 10 µM Mg2+","baseline: high Mg2+ state, higher = stronger signaling",fold induction,3.24

# Excerpt of the above (study 5):
Oligonucleotide,E-score
CCGTTATC,0.152
AGTAGAGC,-0.189
CCTAGTCA,-0.288
GAGGCTAA,-0.146
CAGATTGC,-0.0403
CCCGCCAA,0.182
GGAAGTGA,0.0663
GAAAGAGC,-0.0147
